# Measurements of several laboratories.
# Parts stem from different laboratories: compare values within a part only. Changes are numbered by the printed parent chain.

# Set 1
# Target: ABI1, truncated, D143A, DHFR fusion (Arabidopsis thaliana)
# Technique: DHFR PCA, deep sequencing
# Sample: yeast
# Setting: methotrexate growth selection, single substitutions
# Together with: (+)-ABA 0.032 µM
# Relative to: wild-type fitted maximum
# Reading: higher = stronger binding
# Parent: PYL1, truncated, DHFR fusion (Arabidopsis thaliana); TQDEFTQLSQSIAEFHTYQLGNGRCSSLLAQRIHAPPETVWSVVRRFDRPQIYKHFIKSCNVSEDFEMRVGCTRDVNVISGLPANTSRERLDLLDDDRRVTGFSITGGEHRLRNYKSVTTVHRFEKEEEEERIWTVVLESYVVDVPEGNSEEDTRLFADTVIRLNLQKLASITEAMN; partner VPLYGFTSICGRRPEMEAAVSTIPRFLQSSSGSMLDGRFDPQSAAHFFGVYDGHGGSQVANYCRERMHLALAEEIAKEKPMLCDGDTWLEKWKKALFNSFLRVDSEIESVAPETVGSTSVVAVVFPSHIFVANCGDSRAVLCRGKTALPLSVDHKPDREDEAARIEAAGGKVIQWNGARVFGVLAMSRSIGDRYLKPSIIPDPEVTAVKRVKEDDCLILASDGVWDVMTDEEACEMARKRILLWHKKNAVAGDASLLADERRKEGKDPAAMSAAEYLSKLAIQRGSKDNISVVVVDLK
Change,relative binding score
R123W,-0.147%
G108P,1.72%
I105L,0.133%
D95I,-3.85%
H110M,34.4%
G21P,1.06%
A30W,18%
T1F,16%
Y141K,-10.3%
N149G,52.9%
Q31L,2.13%
L169I,-8.21%
S59Y,0.226%
Q19C,9.1%
S63I,4%
A35Q,0.111%
R45Q,0.777%
T106S,1.63%
D153V,2.24%
K116A,2.19%
S80L,38%
W41D,-5.87%
L29R,1.79%

# Set 2
# Target: Centromere-binding protein 1, full length, His-tagged (CBF1, Saccharomyces cerevisiae, UniProt P17106, residues 1-351)
# Chain of UniProt P17106 (whole entry, looked up): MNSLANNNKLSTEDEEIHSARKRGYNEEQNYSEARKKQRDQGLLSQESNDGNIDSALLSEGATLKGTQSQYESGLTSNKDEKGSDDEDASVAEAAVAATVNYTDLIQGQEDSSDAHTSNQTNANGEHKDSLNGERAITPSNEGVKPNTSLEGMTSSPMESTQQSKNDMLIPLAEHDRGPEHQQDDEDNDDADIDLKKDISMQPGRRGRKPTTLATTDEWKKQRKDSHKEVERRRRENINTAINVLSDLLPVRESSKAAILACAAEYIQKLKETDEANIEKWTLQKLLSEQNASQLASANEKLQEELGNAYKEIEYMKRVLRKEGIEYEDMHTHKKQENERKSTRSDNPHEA
# Technique: competition protein-binding microarray
# Form: double-stranded DNA, one strand shown
# Sample: in vitro
# Tested at: 2 µM
# Setting: whole 60-bp probe, lowest competitor level
# Together with: Pho4 competitor, 0.05 µM
# Reading: higher = stronger binding
# Constant ends, left off below: … GTCTTGATTCGCTTGACGCTGCTG
Strand,fluorescence intensity [a.u.]
TGCGCAACAACTTGCGAAGTGGGTGTATGTCTAGAA,66
TTTTCTGATTGCCAGCCCGTGCGGATTAGGGATTTC,79.7
TGGCCCTTTGTTGGGCATGTGCTGCAAGAAAACTGG,189
TAAGCACCAAATGGAGACGTGGCCGCACCATAATCA,59.2
CATACCCAACCTTGTCACCTCACTTAAGATATTTGT,73.4
CTTCTGTAAATTTGACCCGTGGGTGGACGCGCCCCG,76.3
AAGAAATGAGGCCGTCACAGATGTTAAGAATTGAAG,71.8
TTCTGGAACAATTATCATGTTTCTCATCTGGGTTCT,124
AAATTACTAAGTTGTCACGTGGGTGACGCCGTATGA,6160
CGAGAATGTCCGGAACACATGTCAATATTTGCTCCT,181
CAGCAACGGACAGGCGTCGTGCGGACAAACTTGCTC,62.1
CCCTTAGACTTGCTGGGCGTGCGATTCAAGGGACAG,58.5
CGGGGTTAAGTTTGTCACGTCACTTGCTTGCAGCAG,104
TCTGGCTTGCGCGGCCTCGTGCCAGTAAGTAGAAAA,89.3
TCCACTGAGATGACTACTGTGACGGGTACCAACGGT,64.7
AAGCAACAACACCGACCCGTGCCAGCGACATCTGCT,80.5
CATACCCAACCTTGTCACTAGACTTAAGATATTTGT,93
GTCTTGTCTCATTGTCACAGAACTTTCCCCACTTCA,93.3
TTGAAGAGGATTTGACTCGTGTTGACAAGGCAATCA,81.1
CGTCCTAGCGATTGAGCTGTGGGTGCCATGAGGAAG,63.1
CTAACGAAGGTTTGTCACCGTACTTACAAGCCAAGT,80.3
AAAGCGGTAATTTGGCTGGTGGGTGCAGATATCTAT,78.9
ATGTACAGTGGTACCCTCGTGTTTTCTGCAGCGAGA,106
AATGTGTCGTTCGAACTCGTGGTTACGTCGCCTGGA,87.8
GGGAACTAGGCAAAGCACGGGTTTGGCGAGGCCGCT,90.5

# Set 3
# Molecule: PhoQ, residues 284 288 289 292 302 303 NLCILV
# Technique: Sort-seq
# Refers to: YFP reporter
# Sample: E. coli
# Setting: PhoQ-PhoP variant library
# Together with: 10 µM Mg2+
# Relative to: high Mg2+ state
# Reading: higher = stronger signaling
target,fold induction
"PhoP, residues 12 14 15 18 19 NFFVT (Escherichia coli, UniProt P23836)",21.3
"PhoP, residues 12 14 15 18 19 TPWTL (Escherichia coli, UniProt P23836)",5.7
"PhoP, residues 12 14 15 18 19 LHHYF (Escherichia coli, UniProt P23836)",35.9

# Set 4
# Target: Prothrombin, mature alpha-thrombin (F2, Homo sapiens, UniProt P00734)
# Technique: aptamer microarray, sandwich
# Form: DNA with 2'F-ANA
# Sample: in vitro
# Tested at: 200 nM
# Setting: whole 15-mer aptamer, many near background
# Together with: Cy3 exosite-II aptamer, 400 nM
# Reading: higher = stronger binding
# Strand: GGTTGGTGTGGTTGG
Modification,mean fluorescence intensity
2'F-ANA at 2 4 7 11 13 14 15,100 a.u.
2'F-ANA at 2 5 7 8 10 12 13 15,57 a.u.
2'F-ANA at 1 2 3 5 6 7 8 9 14 15,106 a.u.
2'F-ANA at 2 6 8 11 13 15,273 a.u.
2'F-ANA at 3 4 5 8 10 11,56.6 a.u.
2'F-ANA at 4 6 7 9 11 15,169 a.u.
2'F-ANA at 1 2 4 5 6 7 10 11 14,59.3 a.u.
2'F-ANA at 1 10 11 12 13 14,52.7 a.u.
2'F-ANA at 3 7 9 14,612 a.u.
2'F-ANA at 1 3 5 8 12 15,131 a.u.
2'F-ANA at 1 4 7 8 9 10 11 15,50.2 a.u.
2'F-ANA at 2 3 4 10 12 13,285 a.u.
2'F-ANA at 2 3 5 6 7 8 10 12 15,58.4 a.u.
2'F-ANA at 2 5 8 10 12 13 15,48 a.u.
2'F-ANA at 1 2 4 5 7 9 11 12 13,69 a.u.
2'F-ANA at 3 7 8 9 14 15,724 a.u.
2'F-ANA at 1 2 4 5 6 9 14 15,47.6 a.u.
2'F-ANA at 1 2 3 5 7 8 9 11 12 13 14 15,52.2 a.u.
2'F-ANA at 3 4 7 8 10 11 12 14,231 a.u.
2'F-ANA at 2 3 5 6 9 11 12 13,115 a.u.
2'F-ANA at 1 2 3 4 5 6 9 10 13 14 15,54.1 a.u.
2'F-ANA at 1 6 7 9 10 11 12,73.2 a.u.
2'F-ANA at 1 3 4 6 8 12 14,134 a.u.
2'F-ANA at 2 3 7 9 12 13 14 15,468 a.u.
2'F-ANA at 1 3 4 5 6 8 11 13,77 a.u.

# Set 5
# Target: CCNF, cyclin fold, Cln2 fusion (human)
# Technique: yeast growth competition, sequencing
# Sample: yeast
# Setting: strong parent motif
# Relative to: not given
# Reading: higher = stronger binding
# Parent: WEE1 docking peptide (human); HKTFRKLRLFDTP
Change,normalised enrichment score
HKTFRKLRPFDTP [L9P],0.958
HKTFRKLRMFDTP [L9M],2.19
HKTFRKKRLFDTP [L7K],0.89
HKTFRKLFLFDTP [R8F],3.55
PKTFRKLRLFDTP [H1P],2.39
HFTFRKLRLFDTP [K2F],2.31
HKTFRLLRLFDTP [K6L],2.47
HKTFRRLRLFDTP [K6R],3.16
KKTFRKLRLFDTP [H1K],2.85
IKTFRKLRLFDTP [H1I],3.15
HKTIRKLRLFDTP [F4I],3.08
HKTFRKLRLFCTP [D11C],2.55
HKTFRFLRLFDTP [K6F],0.782
HKTFRKLRLFMTP [D11M],2.33
HKTFRKLRLFNTP [D11N],2.14
HKTFRALRLFDTP [K6A],2.27

# Excerpt of the above (set 1):
Change,relative binding score
Y141K,-10.3%
N149G,52.9%
Q31L,2.13%
L169I,-8.21%
S59Y,0.226%
Q19C,9.1%
S63I,4%
A35Q,0.111%
R45Q,0.777%
T106S,1.63%
D153V,2.24%
K116A,2.19%
S80L,38%
